Results pooled from the literature.
Organism: Escherichia coli

| Compound | test | system | setting | MIC |
| --- | --- | --- | --- | --- |
| CC[C@H](C)[C@H](NC(=O)[C@@H](CCCNC(=N)N)NC(=O)[C@H](CCCNC(=N)N)NC(=O)[C@@H]1CCCN1C(=O)[C@@H]1CCCN1C(=O)[C@H](Cc1c[nH]cn1)NC(=O)[C@@H]1CCCN1C(=O)[C@H](CCCNC(=N)N)NC(=O)[C@@H]1CCCN1C(=O)[C@H](CC(C)C)NC(=O)[C@H](Cc1ccc(O)cc1)NC(=O)[C@@H]1CCCN1C(=O)[C@@H]1CCCN1C(=O)[C@H](CCCCN)NC(=O)[C@H](CC(=O)O)NC(=O)[C@@H](N)C(C)C)C(=O)N[C@@H](Cc1ccc(O)cc1)C(=O)N[C@@H](CC(N)=O)C(=O)N[C@H](CCCNC(=N)N)C(N)=O | broth microdilution | ATCC 25922 | 18 h, 37 °C, 25% MHB2 | 32 µg/mL |
| CC(C)C[C@@H](NC(=O)[C@H](NC(=O)[C@@H](CCCCN)NC(=O)[C@@H](CCCCN)NC(=O)[C@@H](CC(C)C)NC(=O)[C@@H](Cc1c[nH]c2ccccc12)NC(=O)[C@@H](CCCCN)NC(=O)[C@@H](Cc1c[nH]c2ccccc12)NC(=O)[C@@H](CC(C)C)NC(=O)[C@@H](CCCCN)NC(=O)[C@@H](CCCCN)NC(=O)[C@H](N)C(C)C)C(C)C)C(N)=O | – | – | 24 h, 37 °C, Mueller-Hinton broth, FeCl3 4 µM | 16 µM |
| CC[C@H](C)[C@H](NC(=O)[C@@H](CCCNC(=N)N)NC(=O)[C@H](CCCNC(=N)N)NC(=O)[C@H](CCC(=O)O)NC(=O)[C@H](Cc1c[nH]c2ccccc12)NC(=O)[C@H](CCCNC(=N)N)NC(=O)[C@@H]1CCCN1C(=O)[C@H](CCCNC(=N)N)NC(=O)[C@@H]1CCCN1C(=O)[C@H](CC(C)C)NC(=O)[C@H](Cc1ccc(O)cc1)NC(=O)[C@@H]1CCCN1C(=O)[C@@H]1CCCN1C(=O)[C@H](CCCCN)NC(=O)[C@H](CC(=O)O)NC(=O)[C@@H](N)C(C)C)C(=O)N[C@@H](Cc1ccc(O)cc1)C(=O)N[C@@H](CC(N)=O)C(=O)N[C@H](CCCNC(=N)N)C(N)=O | broth microdilution | MC4100 | 18 h, 37 °C, 25% MHB2 | 8 µg/mL |
| CC[C@H](C)[C@H](NC(=O)[C@H](CCCCN)NC(=O)[C@H](CCCCN)NC(=O)[C@H](CC(C)C)NC(=O)[C@H](CCCCN)NC(=O)[C@H](CCCCN)NC(=O)[C@H](Cc1ccccc1)NC(=O)[C@H](Cc1ccccc1)NC(=O)[C@H](CCCNC(=N)N)NC(=O)[C@H](CCCNC(=N)N)NC(=O)[C@@H](NC(=O)[C@H](CCCCN)NC(=O)[C@H](CCCNC(=N)N)NC(=O)[C@@H](NC(=O)[C@H](Cc1ccc(O)cc1)NC(=O)[C@H](CO)NC(=O)[C@H](CCCNC(=N)N)NC(=O)[C@@H](N)CC(C)C)[C@@H](C)CC)[C@@H](C)CC)C(=O)N[C@@H](CC(C)C)C(=O)N[C@@H](CCCCN)C(=O)N[C@@H](CCCCN)C(N)=O | – | BL21(DE3), Mueller-Hinton broth | 20 h | 1.37 µM |
| CC(C)C[C@H](NC(=O)[C@H](CCCCN)NC(=O)C1CCC=CCCC(NC(=O)[C@H](CCCCN)NC(=O)[C@@H](N)CC(C)C)C(=O)N[C@@H](CCCCN)C(=O)NC2CCC=CCCC(NC(=O)[C@H](CCCCN)NC(=O)CNC(=O)[C@H]3CCCN3C(=O)[C@H](CCCCN)NC2=O)C(=O)N[C@@H](CCCCN)C(=O)N1)C(N)=O (stereo partly shown) | broth microdilution | ATCC 25922, Mueller-Hinton broth | 18 h, 37 °C | 64 µM |
| CC[C@H](C)[C@H](NC(=O)[C@H](C)NC(=O)[C@@H](NC(=O)[C@H](CC(=O)O)NC(=O)[C@H](CCCCN)NC(=O)[C@H](CO)NC(=O)[C@@H](NC(=O)[C@H](CC(N)=O)NC(=O)[C@H](C)NC(=O)[C@@H](NC(=O)[C@H](CCC(=O)O)NC(=O)[C@H](CCCCN)NC(=O)[C@@H](NC(=O)[C@@H](NC(=O)[C@H](Cc1c[nH]cn1)NC(=O)[C@H](CCCCN)NC(=O)[C@@H](NC(=O)[C@H](CCCCN)NC(=O)[C@H](CCCCN)NC(=O)[C@@H](NC(=O)[C@H](CC(C)C)NC(=O)[C@H](CCCCN)NC(=O)[C@H](CC(N)=O)NC(=O)[C@H](Cc1ccccc1)NC(=O)[C@H](CCCNC(=N)N)NC(=O)[C@H](CCCCN)NC(=O)[C@H](CCCNC(=N)N)NC(=O)[C@H](Cc1ccccc1)NC(=O)CN)C(C)C)C(C)C)[C@@H](C)O)[C@@H](C)CC)[C@@H](C)O)C(C)C)C(C)C)C(=O)N[C@H](C(=O)N[C@@H](C)C(=O)NCC(=O)N[C@@H](CO)C(=O)NCC(=O)N[C@H](C(=O)N[C@@H](C)C(=O)N[C@H](C(=O)NCC(=O)N[C@@H](C)C(=O)N[C@@H](C)C(=O)N[C@@H](CCSC)C(N)=O)C(C)C)C(C)C)C(C)C | broth microdilution | RKI 131/03, CAMHB with 10% mouse serum | – | 0.125 µg/mL |
| CC1(C)[C@H](NC(=O)/C(=N\OCC(=O)N2CCC(C(=O)O)C2)c2nsc(N)n2)C(=O)N1OS(=O)(=O)O (stereo partly shown) | agar dilution | 08-85, mcr-1 | – | > 64 µg/mL |
| CC[C@H](C)[C@H](NC(=O)[C@H](CC(C)C)NC(=O)[C@H](CCCNC(=N)N)NC(=O)CNC(=O)CNC(=O)[C@H](CCCCN)NC(=O)[C@H](CCCNC(=N)N)NC(=O)[C@H](CC(C)C)NC(=O)[C@H](CC(C)C)NC(=O)[C@H](CCCNC(=N)N)NC(=O)[C@@H](NC(=O)[C@H](CC(C)C)NC(=O)[C@@H](N)CO)[C@@H](C)O)C(=O)NCC(=O)N[C@@H](Cc1c[nH]c2ccccc12)C(=O)N[C@@H](CCCNC(=N)N)C(=O)N[C@@H](Cc1c[nH]c2ccccc12)C(=O)N[C@@H](CCC(=O)O)C(=O)N[C@@H](CCCCN)C(=O)N[C@H](C(=O)N[C@@H](CCCNC(=N)N)C(=O)N[C@@H](CC(N)=O)C(=O)N[C@@H](Cc1c[nH]c2ccccc12)C(=O)N[C@H](C(=O)N[C@@H](CCCNC(=N)N)C(=O)N[C@@H](CCCNC(=N)N)C(=O)N[C@H](C(=O)N[C@H](C(=O)N[C@@H](CCC(=O)O)C(=O)N[C@@H](CCCCN)C(=O)N[C@@H](CCCNC(=N)N)C(=O)N[C@@H](CCCCN)C(=O)N1CCC[C@H]1C(=O)N[C@@H](CC(N)=O)C(=O)N[C@@H](CCCCN)C(=O)O)[C@@H](C)CC)[C@@H](C)CC)[C@@H](C)CC)[C@@H](C)O | broth microdilution | ATCC 25922, Mueller-Hinton broth | 16 to 20 h, 37 °C | 8.79 µg/mL |
| CC[C@H](C)[C@H](NC(=O)[C@@H](CCCNC(=N)N)NC(=O)[C@H](CCCNC(=N)N)NC(=O)[C@H](CC(=O)O)NC(=O)[C@H](Cc1c[nH]c2ccccc12)NC(=O)[C@H](CCCNC(=N)N)NC(=O)[C@@H]1CCCN1C(=O)[C@H](CCCNC(=N)N)NC(=O)[C@@H]1CCCN1C(=O)[C@H](CC(C)C)NC(=O)[C@H](Cc1ccc(O)cc1)NC(=O)[C@@H]1CCCN1C(=O)[C@@H]1CCCN1C(=O)[C@H](CCCCN)NC(=O)[C@H](CC(=O)O)NC(=O)[C@@H](N)C(C)C)C(=O)N[C@@H](Cc1ccc(O)cc1)C(=O)N[C@@H](CC(N)=O)C(=O)N[C@H](CCCNC(=N)N)C(N)=O | broth microdilution | MC4100 | 18 h, 37 °C, 25% MHB2 | 16 µg/mL |
| CCCCCCCC(=O)N[C@@H](CCN)C(=O)N[C@H](C(=O)N[C@@H](CCN)C(=O)N[C@H]1CCNC(=O)[C@H]([C@@H](C)O)NC(=O)[C@H](CCN)NC(=O)[C@H](CCN)NC(=O)[C@H](CC(C)C)NC(=O)[C@@H](Cc2ccc(C(F)(F)F)cc2)NC(=O)[C@H](CCN)NC1=O)[C@@H](C)O | broth microdilution | mcr-1, colistin-resistant | – | 1 to 2 µg/mL |
| CC[C@H](C)[C@H](NC(=O)[C@@H](CCCNC(=N)N)NC(=O)[C@H](CCCNC(=N)N)NC(=O)[C@H](C)NC(=O)[C@H](Cc1c[nH]c2ccccc12)NC(=O)[C@H](CCCNC(=N)N)NC(=O)[C@@H]1CCCN1C(=O)[C@H](CCCNC(=N)N)NC(=O)[C@@H]1CCCN1C(=O)[C@H](CC(C)C)NC(=O)[C@H](Cc1ccc(O)cc1)NC(=O)[C@@H]1CCCN1C(=O)[C@@H]1CCCN1C(=O)[C@H](CCCCN)NC(=O)[C@H](CC(=O)O)NC(=O)[C@@H](N)C(C)C)C(=O)N[C@@H](Cc1ccc(O)cc1)C(=O)N[C@@H](CC(N)=O)C(=O)N[C@H](CCCNC(=N)N)C(N)=O | broth microdilution | BW25113 | 18 h, 37 °C, 25% MHB2 | 16 µg/mL |
| CSCC[C@H](NC=O)C(=O)N[C@@H](CCCNC(=N)N)C(=O)N[C@H](C(=O)NCC(=O)N[C@@H](CC(N)=O)C(=O)N[C@@H](C)C(=O)N[C@@H](CC(N)=O)C(=O)NCC(=O)N1CCN(c2ccc(N3C[C@H](CNC(C)=O)OC3=O)cc2F)CC1)[C@@H](C)O | broth dilution | K12 MG1655 efflux knock-out | – | ~4.4 µM |
| CC[C@H](C)[C@H](NC(=O)[C@H](CCCNC(=N)N)NC(=O)[C@H]1CCCN1C(=O)[C@H](Cc1ccc(O)cc1)NC(=O)[C@@H](NC(=O)[C@@H](NC(=O)[C@H](CCCNC(=N)N)NC(=O)[C@H](Cc1ccccc1)NC(=O)[C@@H](NC(=O)[C@H](Cc1c[nH]c2ccccc12)NC(=O)[C@H](Cc1c[nH]c2ccccc12)NC(=O)c1ccccc1)C(C)C)C(C)C)C(C)C)C(=O)N[C@H](C(=O)N[C@@H](Cc1ccc(O)cc1)C(=O)N[C@@H](CCCNC(=N)N)C(=O)N[C@@H](CCCNC(=N)N)C(=O)N[C@H](C(=O)N[C@@H](CCCNC(=N)N)C(=O)N[C@@H](Cc1c[nH]c2ccccc12)C(=O)N[C@H](C(=O)NCC(=O)N1CCC[C@H]1C(=O)N[C@@H](CCCCN)C(=O)N[C@@H](CCCCN)C(N)=O)[C@@H](C)O)C(C)C)C(C)C | bacterial growth, broth dilution, OD600 | DH5α, LB medium | 16 h, 37 °C | 25 µM |
| CC[C@H](C)[C@@H]1NC(=O)[C@H](C(C)C)NC(=O)[C@H](C(C)C)NC(=O)[C@H](CC(C)C)NC(=O)C[C@@H](C(=O)N[C@@H](Cc2c[nH]c3ccccc23)C(=O)N[C@@H](CC(N)=O)C(=O)N[C@@H](C)C(=O)N2CCC[C@H]2C(=O)NCC(=O)N[C@@H](Cc2c[nH]c3ccccc23)C(=O)N[C@@H](Cc2ccccc2)C(=O)O)NC(=O)[C@H](C)NC(=O)[C@H](CCC(N)=O)NC(=O)[C@H](C(C)C)NC1=O | – | ATCC 25922 | – | > 32 µg/mL |
| CC[C@H](C)[C@H](NC(=O)[C@@H](NC(=O)[C@H](CCCCN)NC(=O)[C@H](CCC(N)=O)NC(=O)[C@@H](NC(=O)[C@H](Cc1c[nH]c2ccccc12)NC(=O)[C@H](CCCCN)NC(=O)[C@H](CCCCN)NC(=O)[C@H](CC(C)C)NC(=O)[C@H](CCCNC(=N)N)NC(=O)[C@H](Cc1ccccc1)NC(=O)[C@@H](N)C(C)C)[C@@H](C)CC)C(C)C)C(N)=O | – | – | 24 h, 37 °C, Mueller-Hinton broth, KCl 4.5 mM | 32 µM |
| COc1c(NC(=O)c2ccc(NC(=O)[C@H](CC(N)=O)NC(=O)c3ccc(NC(=O)[C@@H](N)Cc4ccccc4)c(OC)c3O)c(OC)c2O)ccc(C(=O)Nc2ccc(C(=O)O)cc2)c1O | – | empty cosmid vector | 16 h, 37 °C | > 16 µg/mL |

A few entries again:
| Compound | test | system | setting | MIC |
| --- | --- | --- | --- | --- |
| CC[C@H](C)[C@H](NC(=O)[C@H](C)NC(=O)[C@@H](NC(=O)[C@H](CC(=O)O)NC(=O)[C@H](CCCCN)NC(=O)[C@H](CO)NC(=O)[C@@H](NC(=O)[C@H](CC(N)=O)NC(=O)[C@H](C)NC(=O)[C@@H](NC(=O)[C@H](CCC(=O)O)NC(=O)[C@H](CCCCN)NC(=O)[C@@H](NC(=O)[C@@H](NC(=O)[C@H](Cc1c[nH]cn1)NC(=O)[C@H](CCCCN)NC(=O)[C@@H](NC(=O)[C@H](CCCCN)NC(=O)[C@H](CCCCN)NC(=O)[C@@H](NC(=O)[C@H](CC(C)C)NC(=O)[C@H](CCCCN)NC(=O)[C@H](CC(N)=O)NC(=O)[C@H](Cc1ccccc1)NC(=O)[C@H](CCCNC(=N)N)NC(=O)[C@H](CCCCN)NC(=O)[C@H](CCCNC(=N)N)NC(=O)[C@H](Cc1ccccc1)NC(=O)CN)C(C)C)C(C)C)[C@@H](C)O)[C@@H](C)CC)[C@@H](C)O)C(C)C)C(C)C)C(=O)N[C@H](C(=O)N[C@@H](C)C(=O)NCC(=O)N[C@@H](CO)C(=O)NCC(=O)N[C@H](C(=O)N[C@@H](C)C(=O)N[C@H](C(=O)NCC(=O)N[C@@H](C)C(=O)N[C@@H](C)C(=O)N[C@@H](CCSC)C(N)=O)C(C)C)C(C)C)C(C)C | broth microdilution | RKI 131/03, CAMHB with 10% mouse serum | – | 0.125 µg/mL |
| CC1(C)[C@H](NC(=O)/C(=N\OCC(=O)N2CCC(C(=O)O)C2)c2nsc(N)n2)C(=O)N1OS(=O)(=O)O (stereo partly shown) | agar dilution | 08-85, mcr-1 | – | > 64 µg/mL |
